Measured values gathered from unrelated publications.
Parts stem from different laboratories: compare values within a part only. Positions count from the first letter of the parent shown.

Study 1 — target: CCNE2, cyclin fold, Cln2 fusion (human); method: yeast growth competition, sequencing; sample: yeast; notes: strong parent motif; baseline: not given; direction: higher = stronger binding
Parent: viral docking peptide; TSVRRALFTGGSD; partner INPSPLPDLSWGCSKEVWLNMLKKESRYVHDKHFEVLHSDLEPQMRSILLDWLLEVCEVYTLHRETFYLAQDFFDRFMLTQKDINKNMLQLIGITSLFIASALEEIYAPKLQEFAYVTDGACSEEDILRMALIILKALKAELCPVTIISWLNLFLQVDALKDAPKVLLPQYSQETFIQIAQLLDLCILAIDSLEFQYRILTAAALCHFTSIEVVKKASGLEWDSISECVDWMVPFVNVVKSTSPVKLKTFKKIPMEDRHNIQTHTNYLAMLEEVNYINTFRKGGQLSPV
| Change | normalised enrichment score |
| --- | --- |
| R4S | 1.13 |
| G10Q | 4.04 |
| R4G | -0.325 |
| G11D | 4.53 |
| F8P | 0.275 |
| T9I | 3.43 |
| S2E | 2.16 |
| R5T | -0.162 |
| V3S | 0.179 |
| R5H | 0.27 |
| S2P | 2.73 |
| S12W | 3.76 |
| G10F | 2.21 |
| D13A | 3.73 |
| S2N | 4.04 |
| S2C | 3.31 |
| G10N | 4.45 |
| G11I | 3.43 |
| V3C | 3.2 |
| V3W | 1.39 |

Study 2 — read-out: binding; method: phage display NGS; molecule type: peptide; tested at: concentration not given; baseline: input library
Target: UDP-N-acetylglucosamine--peptide N-acetylglucosaminyltransferase 110 kDa subunit (OGT, Homo sapiens, UniProt O15294)
UniProt O15294, sequence (whole entry, looked up): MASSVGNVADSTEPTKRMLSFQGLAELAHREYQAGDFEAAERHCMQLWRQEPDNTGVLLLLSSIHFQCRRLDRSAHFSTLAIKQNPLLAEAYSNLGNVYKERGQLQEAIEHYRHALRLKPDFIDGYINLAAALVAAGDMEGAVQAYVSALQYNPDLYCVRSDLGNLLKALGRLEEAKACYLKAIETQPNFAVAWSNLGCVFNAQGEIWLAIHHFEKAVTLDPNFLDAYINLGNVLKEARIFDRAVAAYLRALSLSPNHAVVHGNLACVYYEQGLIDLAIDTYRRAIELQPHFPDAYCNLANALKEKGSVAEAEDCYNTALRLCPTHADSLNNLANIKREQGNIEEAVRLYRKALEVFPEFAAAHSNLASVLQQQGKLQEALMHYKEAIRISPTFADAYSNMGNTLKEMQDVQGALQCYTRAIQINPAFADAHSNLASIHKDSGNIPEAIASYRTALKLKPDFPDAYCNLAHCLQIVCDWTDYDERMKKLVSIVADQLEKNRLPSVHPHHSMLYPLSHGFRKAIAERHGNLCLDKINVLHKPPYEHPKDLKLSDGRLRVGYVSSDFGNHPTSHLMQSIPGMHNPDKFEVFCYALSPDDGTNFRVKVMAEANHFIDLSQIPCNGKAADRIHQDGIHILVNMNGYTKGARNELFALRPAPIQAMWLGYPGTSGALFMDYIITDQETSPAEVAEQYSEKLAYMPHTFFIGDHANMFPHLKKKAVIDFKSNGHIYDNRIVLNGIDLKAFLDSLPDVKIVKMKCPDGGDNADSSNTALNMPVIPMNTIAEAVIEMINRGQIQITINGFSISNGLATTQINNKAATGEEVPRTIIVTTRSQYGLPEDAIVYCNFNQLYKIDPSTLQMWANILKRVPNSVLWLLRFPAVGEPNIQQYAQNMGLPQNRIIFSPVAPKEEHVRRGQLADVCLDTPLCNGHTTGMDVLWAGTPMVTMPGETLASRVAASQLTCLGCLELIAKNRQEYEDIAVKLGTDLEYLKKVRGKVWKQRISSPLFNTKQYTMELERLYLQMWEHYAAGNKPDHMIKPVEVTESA
| Sequence | enrichment fold change |
| --- | --- |
| YTPIQHHISHTHHAE | 5.79 |
| THTYHPHHIPSDHVH | 10.1 |
| HYTPHQQQRAHAKWS | 13.7 |
| NAKFFPKYQIGMTP | 3.94 |

Study 3 — target: CRIPT, C-terminal peptide; method: DHFR complementation, deep sequencing; sample: yeast; baseline: wild type; direction: higher = weaker binding
Notes: single substitutions, model-inferred values
Parent: ERBIN, PDZ domain 1 (human); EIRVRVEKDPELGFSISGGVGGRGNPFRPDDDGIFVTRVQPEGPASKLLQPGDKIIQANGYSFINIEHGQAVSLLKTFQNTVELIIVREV; partner TKNYKQTSV
| Change | binding free energy change |
| --- | --- |
| L12N | 0.962 kcal/mol |
| N25M | 1.12 kcal/mol |
| A45T | 0.331 kcal/mol |
| P26V | 1.08 kcal/mol |
| F35T | 0.815 kcal/mol |
| Y61M | -0.0206 kcal/mol |
| P51M | 0.241 kcal/mol |
| F35L | 0.665 kcal/mol |

Study 4 — method: RNA Bind-n-Seq; molecule type: RNA; sample: in vitro; tested at: not given; baseline: input RNA pool; direction: higher = stronger binding
Target: RING finger protein unkempt homolog, zinc fingers 1-6, GST-SBP tag (UNK, Homo sapiens, UniProt Q9C0B0, residues 30-357)
UniProt Q9C0B0, sequence (30-357, looked up): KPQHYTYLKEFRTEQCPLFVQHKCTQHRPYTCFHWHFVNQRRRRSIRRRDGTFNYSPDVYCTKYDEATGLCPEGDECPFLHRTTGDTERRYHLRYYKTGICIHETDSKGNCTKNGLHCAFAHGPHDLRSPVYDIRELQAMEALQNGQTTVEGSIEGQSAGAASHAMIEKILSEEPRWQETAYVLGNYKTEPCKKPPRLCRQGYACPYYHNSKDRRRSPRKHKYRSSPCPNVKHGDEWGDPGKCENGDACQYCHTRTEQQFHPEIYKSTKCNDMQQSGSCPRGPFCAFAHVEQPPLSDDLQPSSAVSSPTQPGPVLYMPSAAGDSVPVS
Notes: RNA with constant flanks, human and mouse sites, ends assumed
Constant ends, left off below: GGGAGUUCUACAGUCCGACGAUC … CAACAGAGGAUUGAGCAUCA
| Sequence | bound/input enrichment [ratio] |
| --- | --- |
| UUGAAUGAUUUUGGCUUCAUGAUCUUUCACUCACCAUAUUGUAAACUGGUUCAGAAAUCUCUAGCUCGGAUGUUGCUGAAUGACUUCCUUAAUGACCAGAAUAGAGAUAAAAAUAGUAUC | 1.73 |
| GCUAGUUCUAGUUAGUCUAUAUUGUUUGUUUUUUCAGUCUUCUUUUUCUAGCAUGCUUUACAUAGGAGAGAAUAAAGGGCUAUUUAAUAAGCAAUCCGGAUCUCAGAGAACAUAGUAAUA | 2.48 |
| GCUGUGUCCUGCCCAGCUGGCUUCAGUUAUAUUUACCUUCUAUCUCCUCCCCACAAAUCUUUCUUUGCCAAAUACCUCUGGUUUUCUCACCUGGAAACAUAUACUGUGUGUAAAAGAGUU | 1.79 |
| UUGCCGAGUGCAGUCCCCGCAGCCUUCGACGACGCAGUGGAAGAACGAGUGAUCAACGAGGAAUACAAAAUAUGGAAAAAGAACACCCCUUUUCUUUAUGAUUUGGUGAUGACCCAUGCU | 0.195 |
| AUUCCAUAUUUAUUACGGCUGAGACAAGUUAAGGAUGAAACUCUUCAGGCUGCAGUUAGAGAAAUUUUGGCUUUAAUUGGUUAUGUAGAUCCAGUGAAAGGCAGAGGAAUCCGAAUCCUC | 0.551 |
| AUCAAGCAGCUGAGCCAGAAUACAUACACUCCUCGUGAGGCUGGAUCUCAAAAAGAUGAAAGUCUUGCCUAUUAUAUUGAAAAUCAGUUCCAUGAAUUUAAAUUCAGCAAAGUCUGGCGA | 0.255 |
| ACUUCAGUGGCUGGAACAGUGAGAAAAUGCUGGCCUAAUAGAGUGGCAAAGGAGCAGAUUAGUAGGCGGCUUGAUGGUAAUCAGUAUCUGUUUUUGCCACCAAAUCGUUACAUUUUCCAU | 0.168 |
| ACUGCCUUUACCCUGCUGUAUAAUAAACAACCAGACACUUGGCAACUGUUGAUACAGAUGGUAGUCCCGAAUCACUUUUUAUAUGUUUUAACAUUUGAAAUUCAAGUGUACCUGCCAUAA | 0.122 |

Some of these lines once more (study 3):
| Change | binding free energy change |
| --- | --- |
| L12N | 0.962 kcal/mol |
| N25M | 1.12 kcal/mol |
| A45T | 0.331 kcal/mol |
